Measured values gathered from unrelated publications.
Compare with care: the assays were run in different laboratories.
Route: oral

Compound	test	system	setting	endpoint	value
COC(=O)N[C@H](C(=O)N1CCC[C@H]1c1ncc(-c2cc(F)c3c(c2)O[C@@H](c2cnc(C4CC4)s2)n2c-3cc3cc(-c4cnc([C@@H]5CCCN5C(=O)[C@@H](NC(=O)OC)C(C)C)[nH]4)ccc32)[nH]1)C(C)C		healthy adult humans	180 mg, 6 days	participants with Dizziness	6.3%
CC(C)c1nc(N(C)S(C)(=O)=O)nc(-c2ccc(F)cc2)c1/C=C/[C@@H](O)C[C@@H](O)CC(=O)O	refers to: Nausea	human	10 mg	participants with TEAE	0%
CC(C)c1nc(CN(C)C(=O)N[C@@H](CCN2CCOCC2)C(=O)N[C@H](CC[C@H](Cc2ccccc2)NC(=O)OCc2cncs2)Cc2ccccc2)cs1		human	dose not given	participants with Dizziness	0%
Cc1ccc(=O)n(-c2ccccc2)c1		human	single dose	participants with TEAEs	20.8%
C=CC(=O)NC1CCN(c2ncc3ncnc(Nc4ccc(Oc5ccc6c(c5)ncn6C)c(C)c4)c3n2)CC1		healthy male humans	240 mg	participants with skin lesion TEAE	6.3%
COC(=O)N[C@@H](C)CNc1nccc(-c2cn(C(C)C)nc2-c2cc(Cl)cc(NS(C)(=O)=O)c2F)n1		human	dose not given, alone or with diltiazem or posaconazole	participants with drug-related TEAEs	84%
CCCCCCOC(=O)NC(=N)c1ccc(NCc2nc3cc(C(=O)N(CCC(=O)OCC)c4ccccn4)ccc3n2C)cc1	refers to: Wound	human	75 mg, alone	participants with adverse event	0%
CCCS(=O)(=O)N[C@H]1C[C@@H](N(C)c2ncnc3[nH]ccc23)C1		healthy human	dose not given, added: dabigatran etexilate	participants with TEAEs	25%
C=CC(=O)NC1CCN(c2ncc3ncnc(Nc4ccc(Oc5ccc6c(c5)ncn6C)c(C)c4)c3n2)CC1		healthy male humans	dose not given	participants with adverse events	61.5%
C[C@H]1O[C@@H](O[C@H]2[C@@H](O)C[C@H](O[C@H]3[C@@H](O)C[C@H](O[C@H]4CC[C@@]5(C)[C@H](CC[C@@H]6[C@@H]5C[C@@H](O)[C@]5(C)[C@@H](C7=CC(=O)OC7)CC[C@]65O)C4)O[C@@H]3C)O[C@@H]2C)C[C@H](O)[C@@H]1O		human	0.25 mg	participants with drug-related TEAE	6.9%
CC(C)c1nc(N(C)S(C)(=O)=O)nc(-c2ccc(F)cc2)c1/C=C/[C@@H](O)C[C@@H](O)CC(=O)O		human	10 mg, alone	participants with dizziness	0%
Cc1cc(C)c(CNC(=O)c2cc(Cl)c3c(c2C)O[C@@](C)([C@H]2CC[C@H](N(C)C)CC2)O3)c(=O)[nH]1		healthy human male	200 mg single dose, grade 1	participants with TEAEs	50%
O=C(COc1ccc(Cl)cc1)NC12CC(c3nnc([C@H]4C[C@@H](OC(F)(F)F)C4)o3)(C1)C2		human both sexes	45 mg single dose	participants with TEAE	33.3%
CCn1c(=O)c(-c2cc(NC(=O)Nc3ccccc3)c(F)cc2Br)cc2cnc(NC)cc21	refers to: amylase increased	healthy human, matched to severe hepatic impairment	50 mg single dose	participants with grade ≥ 3 TEAE	0%
CN1C(=O)[C@@H](NC(=O)c2nnc(Cc3ccccc3)[nH]2)COc2cccnc21	phase I single ascending dose	human, male and female	100 mg, fasted	participants with any serious TEAE	0%
CC[C@@H]([C@H](C)O)n1ncn(-c2ccc(N3CCN(c4ccc(OC[C@@H]5CO[C@@](Cn6cncn6)(c6ccc(F)cc6F)C5)cc4)CC3)cc2)c1=O		human	dose not given	participants with adverse events	25%

For quick reference, copied from above:
Compound	test	system	setting	endpoint	value
CCCCCCOC(=O)NC(=N)c1ccc(NCc2nc3cc(C(=O)N(CCC(=O)OCC)c4ccccn4)ccc3n2C)cc1	refers to: Wound	human	75 mg, alone	participants with adverse event	0%
O=C(COc1ccc(Cl)cc1)NC12CC(c3nnc([C@H]4C[C@@H](OC(F)(F)F)C4)o3)(C1)C2		human both sexes	45 mg single dose	participants with TEAE	33.3%
